Measured values gathered from unrelated publications.
Protocols differ between the studies behind these lines. Numbers after ± are the reported error.

| Molecule | target or system | test | test system | setting | how to read | endpoint | value |
| --- | --- | --- | --- | --- | --- | --- | --- |
| Polymyxin B |  |  | mouse, urine | 20 mg/kg |  | NGAL level | 37 ng/mL |
| Ac-LRKLRKRLLRDWLKAFYDKVAEKLKEAF-NH2 (N-acetyl, C-amide) | THP-1 derived macrophages |  | peptide | 2 h pulse, 120 min chase, heparin wash |  | cell-associated peptide | 56 ± 1.3% |
| aspterric acid |  |  | Arabidopsis thaliana Col-0 seeds | 100 µg/mL, seed germination |  | hypocotyl length | 0.01 cm |
| calpain inhibitor III | Vero E6 | cell viability |  |  |  | CC50 | > 2.5 µM |
| DPDPE |  | RP-HPLC | HALO Phenyl-hexyl column | 25 µM, acetic acid/methanol, 10 min gradient |  | retention time | 8.54 min |
| NLVPMVATA | HLA-A2 complex with compound | nanoDSF | peptide | pH 7.6, 2 µM complex |  | Tm | 48.2 ± 0.1 °C |
| insulin human |  | refers to: PPAT mRNA | EcoHIV-infected mouse, brain | i.p., dose not given | reference: PBS | fold change | 1.25 |
| Met-enkephalin |  | LC-MS3 | rat dialysate with 5% acetic acid | -80 °C |  | storage stability time | ~5 days |
| ivermectin | Vero E6 | WST-1 |  |  |  | CC50 | 13.1 ± 0.831 µM |
| QAKTFLDKFNHEAEDLFYQ |  | circular dichroism | peptide, water/TFE 1:1 v/v | 200 µM, 25 °C |  | beta-turn content | 13.1% |
| capreomycin sulfate |  |  | guinea pig, serum | insufflation, dose not given, dry powder combination single dose |  | AUC(0-inf) | 5080 ng·h/mL |
| heparin sodium |  |  | healthy Chinese adult volunteers | continuous intravenous infusion, 8 IU/kg/h, 5 days |  | subjects with AEs leading to death | 0% |

A few entries again:
| Molecule | target or system | test | test system | setting | how to read | endpoint | value |
| --- | --- | --- | --- | --- | --- | --- | --- |
| capreomycin sulfate |  |  | guinea pig, serum | insufflation, dose not given, dry powder combination single dose |  | AUC(0-inf) | 5080 ng·h/mL |
